Published values of several laboratories.
± gives the spread as reported.
CYP3A4: Cytochrome P450 3A4 (CYP3A4, Homo sapiens, UniProt P08684)
Sequence of UniProt P08684 (whole entry, looked up): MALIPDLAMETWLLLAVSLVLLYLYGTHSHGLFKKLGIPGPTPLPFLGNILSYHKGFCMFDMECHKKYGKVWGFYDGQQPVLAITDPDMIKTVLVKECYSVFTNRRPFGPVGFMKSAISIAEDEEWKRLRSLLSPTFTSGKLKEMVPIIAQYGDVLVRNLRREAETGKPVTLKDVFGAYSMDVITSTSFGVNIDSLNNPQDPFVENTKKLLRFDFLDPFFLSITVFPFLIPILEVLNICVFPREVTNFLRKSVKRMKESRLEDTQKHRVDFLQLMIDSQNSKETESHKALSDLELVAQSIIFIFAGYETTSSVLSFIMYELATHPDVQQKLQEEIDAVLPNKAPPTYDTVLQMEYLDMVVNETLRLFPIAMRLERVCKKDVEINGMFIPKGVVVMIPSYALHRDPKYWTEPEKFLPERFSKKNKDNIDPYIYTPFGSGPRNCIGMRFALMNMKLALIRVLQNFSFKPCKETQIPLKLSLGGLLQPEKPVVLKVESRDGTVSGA
Sequence of UniProt Q13936 (whole entry, looked up): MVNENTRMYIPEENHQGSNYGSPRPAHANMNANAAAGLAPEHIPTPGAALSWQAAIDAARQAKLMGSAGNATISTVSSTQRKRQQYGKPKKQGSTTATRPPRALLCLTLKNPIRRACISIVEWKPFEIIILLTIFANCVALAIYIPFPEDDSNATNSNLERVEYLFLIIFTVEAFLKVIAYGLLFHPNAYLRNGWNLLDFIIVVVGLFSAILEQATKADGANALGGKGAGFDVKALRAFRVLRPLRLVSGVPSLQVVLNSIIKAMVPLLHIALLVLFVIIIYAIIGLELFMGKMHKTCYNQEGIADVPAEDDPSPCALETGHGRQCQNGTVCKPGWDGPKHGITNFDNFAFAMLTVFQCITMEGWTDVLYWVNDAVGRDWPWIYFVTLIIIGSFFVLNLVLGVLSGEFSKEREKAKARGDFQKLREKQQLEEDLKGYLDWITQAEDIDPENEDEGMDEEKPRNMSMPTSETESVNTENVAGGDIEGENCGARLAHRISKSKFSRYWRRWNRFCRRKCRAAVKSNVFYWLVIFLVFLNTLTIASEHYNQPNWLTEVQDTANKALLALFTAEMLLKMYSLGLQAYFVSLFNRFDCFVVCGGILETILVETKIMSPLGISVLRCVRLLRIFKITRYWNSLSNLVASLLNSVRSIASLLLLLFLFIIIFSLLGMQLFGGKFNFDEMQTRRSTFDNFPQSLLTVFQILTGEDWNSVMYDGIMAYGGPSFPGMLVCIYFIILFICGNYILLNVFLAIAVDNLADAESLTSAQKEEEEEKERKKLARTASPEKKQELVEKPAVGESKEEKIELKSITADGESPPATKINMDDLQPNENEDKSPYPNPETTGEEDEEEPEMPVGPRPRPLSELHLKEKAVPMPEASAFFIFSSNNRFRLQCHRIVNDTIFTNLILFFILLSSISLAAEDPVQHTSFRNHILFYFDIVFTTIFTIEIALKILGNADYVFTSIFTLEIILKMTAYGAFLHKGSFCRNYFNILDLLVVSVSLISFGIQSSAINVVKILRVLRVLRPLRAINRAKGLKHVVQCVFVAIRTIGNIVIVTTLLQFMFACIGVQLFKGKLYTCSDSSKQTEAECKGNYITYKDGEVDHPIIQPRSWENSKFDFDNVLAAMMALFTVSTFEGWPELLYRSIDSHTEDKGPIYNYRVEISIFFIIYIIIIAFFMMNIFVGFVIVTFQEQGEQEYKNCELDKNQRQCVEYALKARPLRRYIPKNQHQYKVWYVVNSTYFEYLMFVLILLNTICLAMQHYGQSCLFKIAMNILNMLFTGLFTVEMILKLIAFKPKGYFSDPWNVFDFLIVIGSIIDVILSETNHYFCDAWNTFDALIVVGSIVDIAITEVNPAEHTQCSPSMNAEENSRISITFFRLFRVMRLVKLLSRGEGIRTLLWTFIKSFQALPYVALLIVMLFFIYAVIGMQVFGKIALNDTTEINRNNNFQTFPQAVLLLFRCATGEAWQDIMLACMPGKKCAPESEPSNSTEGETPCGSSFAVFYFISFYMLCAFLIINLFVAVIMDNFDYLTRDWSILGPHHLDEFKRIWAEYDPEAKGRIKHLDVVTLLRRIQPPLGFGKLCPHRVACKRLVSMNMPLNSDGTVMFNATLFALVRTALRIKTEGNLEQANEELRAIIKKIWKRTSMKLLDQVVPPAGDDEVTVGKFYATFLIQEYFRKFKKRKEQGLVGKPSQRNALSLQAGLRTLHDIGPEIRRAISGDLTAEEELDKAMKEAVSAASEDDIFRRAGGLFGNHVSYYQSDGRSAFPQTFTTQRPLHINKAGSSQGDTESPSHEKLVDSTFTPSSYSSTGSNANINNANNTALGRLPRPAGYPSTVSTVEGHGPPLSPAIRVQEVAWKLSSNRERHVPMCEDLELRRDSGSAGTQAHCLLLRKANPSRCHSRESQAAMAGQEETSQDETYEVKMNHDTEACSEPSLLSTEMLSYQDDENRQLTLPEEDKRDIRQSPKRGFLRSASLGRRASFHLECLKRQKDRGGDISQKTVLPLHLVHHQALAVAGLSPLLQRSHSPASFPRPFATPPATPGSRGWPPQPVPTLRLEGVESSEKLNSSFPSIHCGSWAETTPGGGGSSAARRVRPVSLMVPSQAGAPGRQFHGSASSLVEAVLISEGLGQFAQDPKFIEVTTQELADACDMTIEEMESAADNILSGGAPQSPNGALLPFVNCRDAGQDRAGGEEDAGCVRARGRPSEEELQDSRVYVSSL
Sequence of UniProt Q9UNQ0 (whole entry, looked up): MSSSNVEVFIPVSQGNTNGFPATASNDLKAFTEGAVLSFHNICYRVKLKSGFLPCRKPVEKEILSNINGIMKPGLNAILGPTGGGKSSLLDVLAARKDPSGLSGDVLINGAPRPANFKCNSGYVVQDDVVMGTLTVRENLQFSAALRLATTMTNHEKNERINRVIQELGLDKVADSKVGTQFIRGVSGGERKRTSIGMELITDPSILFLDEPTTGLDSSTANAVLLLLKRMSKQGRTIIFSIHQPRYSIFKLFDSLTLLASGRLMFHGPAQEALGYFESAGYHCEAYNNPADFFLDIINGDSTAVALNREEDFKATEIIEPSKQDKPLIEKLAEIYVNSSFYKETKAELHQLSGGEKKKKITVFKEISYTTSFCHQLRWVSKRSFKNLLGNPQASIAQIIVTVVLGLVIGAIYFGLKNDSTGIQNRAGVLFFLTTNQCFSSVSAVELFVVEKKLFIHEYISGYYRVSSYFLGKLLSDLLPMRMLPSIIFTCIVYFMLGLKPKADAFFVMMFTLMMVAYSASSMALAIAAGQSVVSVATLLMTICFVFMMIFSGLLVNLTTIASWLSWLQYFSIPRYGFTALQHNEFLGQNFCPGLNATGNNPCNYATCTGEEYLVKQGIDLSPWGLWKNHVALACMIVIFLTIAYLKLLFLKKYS
Sequence of UniProt O15439 (whole entry, looked up): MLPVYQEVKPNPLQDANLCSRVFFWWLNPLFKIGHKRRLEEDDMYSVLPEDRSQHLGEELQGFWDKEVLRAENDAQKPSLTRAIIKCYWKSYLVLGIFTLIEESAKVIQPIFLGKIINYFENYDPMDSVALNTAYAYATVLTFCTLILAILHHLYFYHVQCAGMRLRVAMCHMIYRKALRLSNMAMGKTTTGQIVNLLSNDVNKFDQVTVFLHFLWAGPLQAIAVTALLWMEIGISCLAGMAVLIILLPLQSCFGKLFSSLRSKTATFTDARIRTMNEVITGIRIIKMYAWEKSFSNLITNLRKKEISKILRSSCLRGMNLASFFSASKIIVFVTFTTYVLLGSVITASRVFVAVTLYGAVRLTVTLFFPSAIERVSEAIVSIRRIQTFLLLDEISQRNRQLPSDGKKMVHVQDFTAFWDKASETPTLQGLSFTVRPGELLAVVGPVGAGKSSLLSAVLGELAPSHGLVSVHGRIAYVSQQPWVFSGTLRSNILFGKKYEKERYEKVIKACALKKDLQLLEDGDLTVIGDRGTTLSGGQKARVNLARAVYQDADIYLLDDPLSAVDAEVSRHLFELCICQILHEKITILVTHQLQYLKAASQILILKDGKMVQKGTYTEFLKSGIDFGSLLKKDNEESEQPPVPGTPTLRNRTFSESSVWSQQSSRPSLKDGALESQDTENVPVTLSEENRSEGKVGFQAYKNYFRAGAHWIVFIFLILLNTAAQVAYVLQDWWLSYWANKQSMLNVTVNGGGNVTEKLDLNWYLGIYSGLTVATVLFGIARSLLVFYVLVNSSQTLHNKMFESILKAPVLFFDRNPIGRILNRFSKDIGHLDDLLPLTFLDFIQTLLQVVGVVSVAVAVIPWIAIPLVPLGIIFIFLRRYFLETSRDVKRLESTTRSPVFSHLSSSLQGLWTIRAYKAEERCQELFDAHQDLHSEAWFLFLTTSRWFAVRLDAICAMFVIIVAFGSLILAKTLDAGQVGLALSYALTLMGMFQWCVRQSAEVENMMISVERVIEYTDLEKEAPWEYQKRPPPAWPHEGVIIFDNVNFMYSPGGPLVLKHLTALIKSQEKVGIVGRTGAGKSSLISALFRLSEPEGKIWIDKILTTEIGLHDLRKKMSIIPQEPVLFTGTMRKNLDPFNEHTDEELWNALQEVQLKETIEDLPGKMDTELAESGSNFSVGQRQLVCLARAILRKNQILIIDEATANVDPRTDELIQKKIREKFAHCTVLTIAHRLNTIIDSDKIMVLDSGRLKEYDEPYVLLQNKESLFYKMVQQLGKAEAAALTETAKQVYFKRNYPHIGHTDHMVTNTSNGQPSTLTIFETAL

The inhibition of `CNC(=O)C1OC(n2cnc3c(NCc4cccc(I)c4)ncnc32)C(O)C1O` (centres unmarked) is reported as 91.7% (Solute carrier organic anion transporter family member 1B3 (SLCO1B3, Homo sapiens, UniProt Q9NPD5); transport, inhibitor; transiently transfected cells; 100 µM, 10 (unit not given), with: CCK-8).
`C/C(=N\OCCCN1CCCCC1)c1ccc(C(F)(F)F)cc1` has an inhibition of 34.5% (Voltage-dependent L-type calcium channel subunit alpha-1C (CACNA1C, Homo sapiens, UniProt Q13936); ion current, antagonist, manual patch clamp; 10 µM).
With `CCN(CC)CCOc1ccc(-c2nnn(Cc3ccc(OC)cc3)c2N)cc1` the IC50 was over 100 µM (Solute carrier family 22 member 6 (SLC22A6, Homo sapiens, UniProt Q4U2R8); transporter uptake, inhibitor).
For `Cc1cc(-c2ccc3ccccc3c2)nnc1NCCN1CCN(C)CC1`, the half-life was over 1 h (CYP3A4; substrate; recombinant enzyme; 100 nM).
`CN[C@@H]1[C@H](O)[C@H](NC)[C@H]2O[C@]3(O)[C@H](O[C@@H]2[C@H]1O)O[C@H](C)C[C@H]3NC(=O)Cc1cc(Cl)ccn1` has an inhibition of 4% (CYP3A4; 10 µM).
`CC(C)OC(=O)[C@H](C)NP(=S)(Oc1ccccc1)c1ccccc1` (some centres unmarked) has a half-life of 3.8 h (Lysosomal protective protein (CTSA, Homo sapiens, UniProt P10619); substrate, LC-MS/MS; 5 µM, pH 7.4, 37 °C).
For `c1ccc(CN2CCCNCCNCCCNCC2)cc1`, “log overall stability constant” read over 43 (Pd(II); potentiometry and UV spectrophotometry; aqueous 1.0 M KCl; 25 °C, Pd2+ + L to PdL).
With `CC(=O)NCCCC[C@@H]1NC(=O)[C@H](Cc2c[nH]c3c(C)cccc23)NC(=O)[C@H]([C@@H](C)O)NC(=O)[C@H](CC(N)=O)NC(=O)[C@@H](NC(C)=O)C(C)(C)SSC(C)(C)[C@@H](C(=O)N[C@@H](Cc2ccc(OCCN)cc2)C(=O)N[C@@H](Cc2ccc3ccccc3c2)C(=O)NC2(C(=O)N[C@@H](CCC(=O)O)C(=O)N[C@@H](CC(N)=O)C(=O)N[C@@H](Cc3cccnc3)C(=O)N(C)CC(N)=O)CCOCC2)NC1=O` the efflux ratio was 9.22 (Broad substrate specificity ATP-binding cassette transporter ABCG2 (ABCG2, Homo sapiens, UniProt Q9UNQ0); transport, inhibitor; LLC-PK1 expressing ABCG2; 24.8 µM, 90 min, with: [3H]prazosin).
The 1-hydroxymidazolam formed of `CNC(=O)C1CCCN(C(=O)C2CC3CCC2N3C(=O)[C@@H]2C[C@@H](O)CN2C(=O)NCc2cccc(Cl)c2F)C1` (mixture of isomers) is reported as 1240 ng/mL (human CYP3A4; time-dependent inhibition; 50 µM, preincubation without NADPH, with: midazolam).
The inhibition of `CSc1nc2[nH]nc([N+](=O)[O-])c(=O)n2n1` is reported as 21.1% (Solute carrier family 22 member 2 (SLC22A2, Homo sapiens, UniProt O15244); transport, inhibitor; transiently transfected cells; 100 µM, 10 (unit not given), with: metformin).
For `Cc1cccc2c1C1(CCN(C(=O)c3ccc4[nH]ncc4c3)CC1)C(=O)N2CC(=O)NCC(F)(F)F`, the IC50 was 46 µM (CYP3A4; enzyme activity, inhibitor).
For `CC(CCC(=O)NCC(=O)O)C1CCC2C3C(O)CC4CC(OC5OC(C(=O)O)C(O)C(O)C5O)CCC4(C)C3CCC12C` (centres unmarked), “vesicle uptake ratio” read 4.4 ± 0.5 (ATP-binding cassette sub-family C member 4 (ABCC4, Homo sapiens, UniProt O15439); substrate, membrane vesicle uptake; 0.2 µM, 10 min; relative to: ATP over AMP).
`O=C(CN1C(=O)C2(CCN(C(=O)c3cnc4[nH]ncc4c3)CC2)c2c(Br)cccc21)NCC(F)(F)F` has an IC50 of over 20 µM (CYP3A4; enzyme activity, inhibitor).
`CC(C)C[C@H](NC(=O)[C@H](CC(C)C)NC(=O)[C@H](CCCCN)NC(=O)[C@H](Cc1ccccc1)NC(=O)[C@@H](NC(=O)[C@H](CCCNC(=N)N)NC(=O)[C@@H](N)CCCCN)C(C)C)C(=O)N[C@@H](CCCCN)C(=O)N[C@@H](CCCNC(=N)N)C(=O)N[C@@H](Cc1ccc(O)cc1)C(=O)N[C@@H](Cc1c[nH]c2ccccc12)C(=O)N[C@@H](CCCNC(=N)N)C(=O)N[C@@H](CCC(N)=O)C(=O)N[C@@H](CC(C)C)C(=O)N[C@@H](CCCCN)C(=O)N[C@@H](CCCCN)C(=O)N1CCC[C@H]1C(=O)N[C@H](C(=O)N[C@@H](CCCNC(=N)N)C(=O)NCCOCCOCC(=O)O)C(C)C` gave a degradation of 11 to 15% (Chymotrypsinogen A (Bos taurus, UniProt P00766); HPLC; 1 mg/mL, 30 min, 37 °C, with: enzyme to peptide 50:1).

Repeated from above:
For `c1ccc(CN2CCCNCCNCCCNCC2)cc1`, “log overall stability constant” read over 43 (Pd(II); potentiometry and UV spectrophotometry; aqueous 1.0 M KCl; 25 °C, Pd2+ + L to PdL).
`O=C(CN1C(=O)C2(CCN(C(=O)c3cnc4[nH]ncc4c3)CC2)c2c(Br)cccc21)NCC(F)(F)F` has an IC50 of over 20 µM (CYP3A4; enzyme activity, inhibitor).
